Results collected from several papers.
Compare with care: the assays were run in different laboratories. Values joined by “and” are separate records of one study, mostly repeats; a detail may differ. ± marks the error that the study gave. In brackets after ≈: the same amount, converted by molar mass.
Organism: Staphylococcus aureus

Compound	test	test system	conditions	how to read	measurement	value
CN[C@H](CC(C)C)C(=O)N[C@H]1C(=O)N[C@@H](CC(N)=O)C(=O)N[C@H]2C(=O)N[C@H]3C(=O)N[C@H](C(=O)N[C@H](C(=O)O)c4cc(O)cc(O)c4-c4cc3ccc4O)[C@H](O)c3ccc(c(Cl)c3)Oc3cc2cc(c3O[C@@H]2O[C@H](CO)[C@@H](O)[C@H](O)[C@H]2O[C@H]2C[C@](C)(N)[C@H](O)[C@H](C)O2)Oc2ccc(cc2Cl)[C@H]1O	broth microdilution	daptomycin-non-susceptible clinical isolates			MIC range	4 to 8 µg/mL (≈ 2.76 to 5.52 µM)
O=C(O)/C=C/c1ccc(O)c(O)c1	bacterial growth	ATCC 29213	24 h		IC50	> 100 µM
O=C(O)c1ccc(-n2cc(CNc3ccc(Cl)c(C(F)(F)F)c3)c(-c3cccc(F)c3)n2)cc1		ATCC 700699, MRSA	4 × MIC		time to kill below detection	≤ 10 h
O=C1C[C@@H](c2ccc(O)cc2)Oc2cc(O)cc(O)c21	bacterial growth	ATCC 29213	24 h		IC50	> 100 µM
O=C(O)c1ccc(-n2cc(CNc3cc(Br)cc(C(F)(F)F)c3)c(-c3cccc(F)c3)n2)cc1		ATCC 700699, MRSA	4 × MIC		time to kill below detection	≤ 10 h
CN[C@H](CC(C)C)C(=O)N[C@H]1C(=O)N[C@@H](CC(N)=O)C(=O)N[C@H]2C(=O)N[C@H]3C(=O)N[C@H](C(=O)N[C@H](C(=O)O)c4cc(O)cc(O)c4-c4cc3ccc4O)[C@H](O)c3ccc(c(Cl)c3)Oc3cc2cc(c3O[C@@H]2O[C@H](CO)[C@@H](O)[C@H](O)[C@H]2O[C@H]2C[C@](C)(N)[C@H](O)[C@H](C)O2)Oc2ccc(cc2Cl)[C@H]1O		09057, female BALB/c mice, sepsis, liver	intraperitoneal, 20 mg/kg		log bacterial load	4.92 log(CFU/g) and 4.47 log(CFU/g) and 4.85 log(CFU/g) and 4.81 log(CFU/g)
CC[C@@H](C)[C@H]1O[C@@H](c2c(O)c(-c3ccccc3)cn(O)c2=O)[C@H](C)C[C@@H]1C	bacterial growth	ATCC 29213			IC50	> 20 µg/mL
CCCCCCCCCC(=O)N[C@@H](Cc1c[nH]c2ccccc12)C(=O)N[C@H](CC(N)=O)C(=O)N[C@@H](CC(=O)O)C(=O)N[C@@H]1C(=O)NCC(=O)N[C@@H](CCCN)C(=O)N[C@@H](CC(=O)O)C(=O)N[C@H](C)C(=O)N[C@@H](CC(=O)O)C(=O)NCC(=O)N[C@H](CO)C(=O)N[C@@H]([C@H](C)CC(=O)O)C(=O)N[C@@H](CC(=O)c2ccccc2N)C(=O)O[C@@H]1C		MRSA ATCC BAA-1556	4 x MIC		time to complete killing	3 h
O=C(NCc1ccccc1)C(O)CO (stereo not shown)	crystal violet staining		500 µg/mL, 24 h	relative to: untreated	residual biofilm	11 ± 2%
NC[C@H]1O[C@H](O[C@H]2[C@H](O)[C@@H](O[C@H]3O[C@H](CO)[C@@H](O)[C@H](N)[C@H]3O)[C@H](N)C[C@@H]2N)[C@H](O)[C@@H](O)[C@@H]1O			concentration not given, 0.2 mg/mL		growth inhibition	82%
CN(C)[C@@H]1C(O)=C(C(N)=O)C(=O)[C@@]2(O)C(O)=C3C(=O)c4c(O)cccc4[C@@](C)(O)[C@H]3C[C@@H]12		CGMCC 1.9	concentration not given, 18 h, 37 °C		inhibition zone diameter	17.5 mm
COc1ccc(/C=C2\NC(=S)N(c3ccccc3)C2=O)c(OC)c1		ATCC 6538	concentration not given		inhibition zone diameter	11 ± 0.23 mm
CN[C@H](CC(C)C)C(=O)N[C@H]1C(=O)N[C@@H](CC(N)=O)C(=O)N[C@H]2C(=O)N[C@H]3C(=O)N[C@H](C(=O)N[C@H](C(=O)O)c4cc(O)cc(O)c4-c4cc3ccc4O)[C@H](O)c3ccc(c(Cl)c3)Oc3cc2cc(c3O[C@@H]2O[C@H](CO)[C@@H](O)[C@H](O)[C@H]2O[C@H]2C[C@](C)(N)[C@H](O)[C@H](C)O2)Oc2ccc(cc2Cl)[C@H]1O		MSSA, 67 strains			MIC90	2 µg/mL (≈ 1.38 µM)
OC[C@H]1O[C@@H](O[C@H]2[C@H](Oc3cc4c(O)cc(O)cc4[o+]c3-c3ccc(O)c(O)c3)O[C@H](CO)[C@@H](O)[C@@H]2O)[C@H](O)[C@@H](O)[C@@H]1O	bacterial growth	ATCC 29213	24 h		IC50	32.4 µM
CC(=O)NC[C@H]1CN(c2ccc(N3CCOCC3)c(F)c2)C(=O)O1	broth microdilution	methicillin-resistant isolates			MIC90	1 µg/mL (≈ 2.96 µM)
O=c1c(O[C@@H]2O[C@H](CO)[C@H](O)[C@H](O)[C@H]2O)c(-c2ccc(O)c(O)c2)oc2cc(O)cc(O)c12	bacterial growth	ATCC 29213	24 h		IC50	> 100 µM
Cn1nc(-c2ccccc2)cc1C1COC2(CCCCC2)O1 (stereo not shown)	crystal violet staining		500 µg/mL, 24 h	relative to: untreated	residual biofilm	6 ± 1%
CCC[C@@H]1C[C@@H](C(=O)N[C@@H]([C@H]2O[C@H](SC)[C@H](O)[C@@H](O)[C@H]2O)[C@H](C)Cl)N(C)C1		CGMCC 1.9	concentration not given, 18 h, 37 °C		inhibition zone diameter	13 mm
O=C(O)CN(CCN(CC(=O)O)CC(=O)O)CC(=O)O		MRSA 1707	24 h		MBC	> 2000 µM
CN[C@H](CC(C)C)C(=O)N[C@H]1C(=O)N[C@@H](CC(N)=O)C(=O)N[C@H]2C(=O)N[C@H]3C(=O)N[C@H](C(=O)N[C@H](C(=O)O)c4cc(O)cc(O)c4-c4cc3ccc4O)[C@H](O)c3ccc(c(Cl)c3)Oc3cc2cc(c3O[C@@H]2O[C@H](CO)[C@@H](O)[C@H](O)[C@H]2O[C@H]2C[C@](C)(N)[C@H](O)[C@H](C)O2)Oc2ccc(cc2Cl)[C@H]1O		USA300 LAC, female ICR mice, peritonitis, heart			bacterial load	4.21 log CFU and 5.31 log CFU and 4.9 log CFU and 4.46 log CFU and 4.05 log CFU and 5.46 log CFU
CN[C@H](CC(C)C)C(=O)N[C@H]1C(=O)N[C@@H](CC(N)=O)C(=O)N[C@H]2C(=O)N[C@H]3C(=O)N[C@H](C(=O)N[C@H](C(=O)O)c4cc(O)cc(O)c4-c4cc3ccc4O)[C@H](O)c3ccc(c(Cl)c3)Oc3cc2cc(c3O[C@@H]2O[C@H](CO)[C@@H](O)[C@H](O)[C@H]2O[C@H]2C[C@](C)(N)[C@H](O)[C@H](C)O2)Oc2ccc(cc2Cl)[C@H]1O	time-kill	MRSA GU-1	1 µg/mL		time to complete killing	8 h
O=C1/C(=C/c2ccc([N+](=O)[O-])cc2[N+](=O)[O-])NC(=S)N1c1ccccc1		ATCC 6538	concentration not given		inhibition zone diameter	14 ± 0.53 mm
Cc1ccc(C[C@H](NC(=O)[C@@H](Cc2ccccc2)NC(=O)[C@@H](Cc2c[nH]c3ccccc23)NC(=O)[C@@H](N)CCCN)C(=O)N[C@H](Cc2ccccc2)C(=O)N[C@@H](Cc2ccc(N)cc2)C(N)=O)cc1	bacterial growth	ATCC 29213			IC50	> 20 µg/mL
CN[C@H](CC(C)C)C(=O)N[C@H]1C(=O)N[C@@H](CC(N)=O)C(=O)N[C@H]2C(=O)N[C@H]3C(=O)N[C@H](C(=O)N[C@H](C(=O)O)c4cc(O)cc(O)c4-c4cc3ccc4O)[C@H](O)c3ccc(c(Cl)c3)Oc3cc2cc(c3O[C@@H]2O[C@H](CO)[C@@H](O)[C@H](O)[C@H]2O[C@H]2C[C@](C)(N)[C@H](O)[C@H](C)O2)Oc2ccc(cc2Cl)[C@H]1O		MRSA ATCC 33591, mouse, pneumonia model, lung homogenate	5 mg/kg		lung bacterial load	4.66 CFU/mL
C=CC[C@@H]1c2ccc(OC)c(OC)c2CN2CCc3cc4c(cc3[C@H]12)OCO4		P2rx7+/+ mice, skin wound infection	dose not given, day 1	relative to: day 0	relative wound size	0.79 and 0.95 and 1.03 and 0.93

A few entries again:
Compound	test	test system	conditions	how to read	measurement	value
Cc1ccc(C[C@H](NC(=O)[C@@H](Cc2ccccc2)NC(=O)[C@@H](Cc2c[nH]c3ccccc23)NC(=O)[C@@H](N)CCCN)C(=O)N[C@H](Cc2ccccc2)C(=O)N[C@@H](Cc2ccc(N)cc2)C(N)=O)cc1	bacterial growth	ATCC 29213			IC50	> 20 µg/mL
CN[C@H](CC(C)C)C(=O)N[C@H]1C(=O)N[C@@H](CC(N)=O)C(=O)N[C@H]2C(=O)N[C@H]3C(=O)N[C@H](C(=O)N[C@H](C(=O)O)c4cc(O)cc(O)c4-c4cc3ccc4O)[C@H](O)c3ccc(c(Cl)c3)Oc3cc2cc(c3O[C@@H]2O[C@H](CO)[C@@H](O)[C@H](O)[C@H]2O[C@H]2C[C@](C)(N)[C@H](O)[C@H](C)O2)Oc2ccc(cc2Cl)[C@H]1O		09057, female BALB/c mice, sepsis, liver	intraperitoneal, 20 mg/kg		log bacterial load	4.92 log(CFU/g) and 4.47 log(CFU/g) and 4.85 log(CFU/g) and 4.81 log(CFU/g)
O=C(O)c1ccc(-n2cc(CNc3ccc(Cl)c(C(F)(F)F)c3)c(-c3cccc(F)c3)n2)cc1		ATCC 700699, MRSA	4 × MIC		time to kill below detection	≤ 10 h
